Experimental data pooled from the literature.
Every numbered part comes from another study and shows a few of its results, in no order.

Series 1
Target: Interferon regulatory factor 5, full length, phosphomimetic (IRF5, Homo sapiens, UniProt Q13568-2, residues 1-514, K96S/S451D/S453D/S456D/S462D)
Method: protein-binding microarray
Form: double-stranded DNA, one strand shown
Medium: in vitro
Tested at: 250 nM
Notes: 60-bp whole probe
Together with: salmon DNA 0.4 mg/ml
Reference: random background probes
Reading: higher = stronger binding
`GCCTAGCACGACGTTTTCCTACTGCTGACGTGCTAGGTCTTGATTCGCTTGACGCTGCTG` gave a log fluorescence of 0.5 z-score.
`GCCTAGCACTTCAGTTTTCCTCTGTCATTGTGCTAGGTCTTGATTCGCTTGACGCTGCTG` gave a log fluorescence of 1.39 z-score.
`GCCTAGCACTTAGATTTCAGGTCCGATTAGTGCTAGGTCTTGATTCGCTTGACGCTGCTG` has a log fluorescence of 1.1 z-score.
For `GCCTAGCACTCCTATGTCATTTACATTTTGTGCTAGGTCTTGATTCGCTTGACGCTGCTG`, the log fluorescence was 0.281 z-score.

Series 2
Target: Prothrombin, mature alpha-thrombin (F2, Homo sapiens, UniProt P00734)
Method: aptamer microarray, sandwich
Form: DNA with 2'F-ANA
Medium: in vitro
Tested at: 200 nM
Notes: whole 15-mer aptamer, many near background
Together with: Cy3 exosite-II aptamer, 400 nM
Reading: higher = stronger binding
`GGTTGGTGTGGTTGG (2'F-ANA at 1 3 11 12 14)` — result for “mean fluorescence intensity”: 119 a.u.
`GGTTGGTGTGGTTGG (2'F-ANA at 2 3 4 5 10 12 14)` — result for “mean fluorescence intensity”: 65.3 a.u.
`GGTTGGTGTGGTTGG (2'F-ANA at 2 6 7 9 10 14 15)` — result for “mean fluorescence intensity”: 129 a.u.
`GGTTGGTGTGGTTGG (2'F-ANA at 1 2 5 6 8 11 12)`: “mean fluorescence intensity” 88.5 a.u.

Series 3
Target: Sal-like protein 4, full length isoform B (SALL4, Homo sapiens, UniProt Q9UJQ4-2, residues 1-616)
Method: universal PBM
Form: double-stranded DNA, one strand shown
Medium: in vitro
Tested at: not given
Notes: 8-mer, flanks averaged, mean of replicates
Reading: higher = stronger binding
`AACCCTAT` has an E-score of 0.0186.
`TCGCGAGA` has an E-score of -0.119.
`AAGTACAG` gave an E-score of 0.0656.
With `TACGCAAA` the E-score was 0.0827.

Other studies, line by line
`PhoQ, residues 284 288 289 292 302 303 TLASMF` has a fold induction of 2.83 (PhoP, residues 12 14 15 18 19 NNFVT (Escherichia coli, UniProt P23836); Sort-seq, refers to: YFP reporter; E. coli; PhoQ-PhoP variant library, together with: 10 µM Mg2+; reference: high Mg2+ state, higher = stronger signaling).

A few entries again (series 2):
`GGTTGGTGTGGTTGG (2'F-ANA at 1 3 11 12 14)` — result for “mean fluorescence intensity”: 119 a.u.
